Published values pooled from the literature.
Parts stem from different laboratories: compare values within a part only. “And” joins repeats or separate records; there may be more than shown.
Sequence of UniProt Q9UL54 (whole entry, looked up): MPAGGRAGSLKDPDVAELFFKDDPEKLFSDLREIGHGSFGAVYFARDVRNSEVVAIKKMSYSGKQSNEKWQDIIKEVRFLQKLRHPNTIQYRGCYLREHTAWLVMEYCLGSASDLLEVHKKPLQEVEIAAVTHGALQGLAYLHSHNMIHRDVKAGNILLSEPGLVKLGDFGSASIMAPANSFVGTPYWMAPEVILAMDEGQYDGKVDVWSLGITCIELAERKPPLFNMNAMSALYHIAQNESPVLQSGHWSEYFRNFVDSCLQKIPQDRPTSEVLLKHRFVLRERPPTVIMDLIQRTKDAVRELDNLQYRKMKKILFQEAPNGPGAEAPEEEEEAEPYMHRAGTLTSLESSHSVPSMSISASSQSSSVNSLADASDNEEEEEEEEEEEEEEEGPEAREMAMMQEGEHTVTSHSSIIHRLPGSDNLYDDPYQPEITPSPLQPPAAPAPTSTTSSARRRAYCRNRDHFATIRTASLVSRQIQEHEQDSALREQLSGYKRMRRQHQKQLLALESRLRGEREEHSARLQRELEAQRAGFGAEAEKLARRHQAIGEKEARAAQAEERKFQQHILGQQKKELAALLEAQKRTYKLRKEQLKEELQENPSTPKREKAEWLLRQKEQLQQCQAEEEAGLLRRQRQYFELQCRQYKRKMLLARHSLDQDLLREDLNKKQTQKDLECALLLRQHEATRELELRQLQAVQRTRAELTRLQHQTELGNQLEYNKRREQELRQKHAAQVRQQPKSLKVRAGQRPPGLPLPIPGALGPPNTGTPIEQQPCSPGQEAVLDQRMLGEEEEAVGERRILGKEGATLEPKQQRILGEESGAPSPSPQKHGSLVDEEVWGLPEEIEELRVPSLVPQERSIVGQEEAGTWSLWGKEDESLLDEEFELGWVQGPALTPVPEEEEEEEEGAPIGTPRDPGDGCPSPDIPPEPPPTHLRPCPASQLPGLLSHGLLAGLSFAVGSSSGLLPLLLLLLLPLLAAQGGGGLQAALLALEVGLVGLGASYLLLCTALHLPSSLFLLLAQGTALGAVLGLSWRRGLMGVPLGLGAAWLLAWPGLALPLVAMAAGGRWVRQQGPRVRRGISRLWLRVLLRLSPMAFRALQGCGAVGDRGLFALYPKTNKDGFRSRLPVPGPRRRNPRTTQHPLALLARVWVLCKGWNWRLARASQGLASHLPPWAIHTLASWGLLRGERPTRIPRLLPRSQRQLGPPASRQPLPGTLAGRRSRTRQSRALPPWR
Sequence of UniProt Q07912 (whole entry, looked up): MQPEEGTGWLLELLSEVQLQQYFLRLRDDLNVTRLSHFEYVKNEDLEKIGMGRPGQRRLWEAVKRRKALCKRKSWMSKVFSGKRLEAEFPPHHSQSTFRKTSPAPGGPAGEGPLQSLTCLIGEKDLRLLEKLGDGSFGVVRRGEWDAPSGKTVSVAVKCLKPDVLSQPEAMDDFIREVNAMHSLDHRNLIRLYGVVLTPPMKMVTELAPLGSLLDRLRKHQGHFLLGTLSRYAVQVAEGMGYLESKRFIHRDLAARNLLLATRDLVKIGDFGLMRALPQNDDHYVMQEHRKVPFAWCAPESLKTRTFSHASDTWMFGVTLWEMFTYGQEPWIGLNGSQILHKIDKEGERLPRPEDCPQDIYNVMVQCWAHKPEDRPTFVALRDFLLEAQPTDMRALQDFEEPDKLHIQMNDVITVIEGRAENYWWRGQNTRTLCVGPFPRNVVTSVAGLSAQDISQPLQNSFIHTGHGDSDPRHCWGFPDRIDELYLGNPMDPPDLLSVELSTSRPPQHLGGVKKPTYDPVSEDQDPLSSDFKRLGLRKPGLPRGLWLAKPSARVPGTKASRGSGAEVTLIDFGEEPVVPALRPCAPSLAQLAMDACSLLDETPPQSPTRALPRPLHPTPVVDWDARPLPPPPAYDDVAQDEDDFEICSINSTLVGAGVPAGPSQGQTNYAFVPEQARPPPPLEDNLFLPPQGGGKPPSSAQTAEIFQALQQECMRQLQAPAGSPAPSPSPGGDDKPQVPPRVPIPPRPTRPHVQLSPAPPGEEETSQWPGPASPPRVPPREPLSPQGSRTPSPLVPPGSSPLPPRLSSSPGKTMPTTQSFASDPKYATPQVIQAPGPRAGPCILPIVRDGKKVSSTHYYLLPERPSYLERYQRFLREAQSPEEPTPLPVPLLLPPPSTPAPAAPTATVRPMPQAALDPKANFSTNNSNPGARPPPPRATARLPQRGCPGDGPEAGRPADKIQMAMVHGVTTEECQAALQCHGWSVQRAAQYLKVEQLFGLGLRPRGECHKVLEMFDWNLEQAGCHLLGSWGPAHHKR
Sequence of UniProt P61075 (whole entry, looked up): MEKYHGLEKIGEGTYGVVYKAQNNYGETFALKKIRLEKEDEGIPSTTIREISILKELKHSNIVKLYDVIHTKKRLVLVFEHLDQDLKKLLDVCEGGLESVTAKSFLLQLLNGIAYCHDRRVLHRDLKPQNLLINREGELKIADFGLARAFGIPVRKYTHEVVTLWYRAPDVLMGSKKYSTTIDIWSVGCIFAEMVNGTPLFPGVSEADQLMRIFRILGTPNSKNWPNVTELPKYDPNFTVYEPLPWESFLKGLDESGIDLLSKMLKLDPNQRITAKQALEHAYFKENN
Sequence of UniProt Q15831 (whole entry, looked up): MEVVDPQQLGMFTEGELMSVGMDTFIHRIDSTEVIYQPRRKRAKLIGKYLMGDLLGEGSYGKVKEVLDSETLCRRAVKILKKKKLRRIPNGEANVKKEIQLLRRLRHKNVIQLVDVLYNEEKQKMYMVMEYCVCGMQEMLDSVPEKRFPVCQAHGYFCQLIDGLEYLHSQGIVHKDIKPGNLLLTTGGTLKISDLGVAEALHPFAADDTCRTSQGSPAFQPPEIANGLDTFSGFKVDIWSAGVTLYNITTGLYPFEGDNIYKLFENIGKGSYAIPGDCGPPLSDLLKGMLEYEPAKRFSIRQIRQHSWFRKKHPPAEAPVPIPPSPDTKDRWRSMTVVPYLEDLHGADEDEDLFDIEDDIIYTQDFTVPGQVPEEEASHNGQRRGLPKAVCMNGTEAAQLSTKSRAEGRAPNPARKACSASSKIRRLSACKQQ

Study 1
Compound: Cc1ccc(O)c(C)c1-c1cnc2[nH]c(-c3cnc(N4CCC5(CC4)CC(N4CCN(c6ccc(N[C@H]7CCC(=O)NC7=O)cc6F)CC4)CO5)nc3)cc2c1C#N (single isomer, unassigned)
PKMYT1: Membrane-associated tyrosine- and threonine-specific cdc2-inhibitory kinase (PKMYT1, Homo sapiens, UniProt Q99640)
Sequence of UniProt Q99640 (whole entry, looked up): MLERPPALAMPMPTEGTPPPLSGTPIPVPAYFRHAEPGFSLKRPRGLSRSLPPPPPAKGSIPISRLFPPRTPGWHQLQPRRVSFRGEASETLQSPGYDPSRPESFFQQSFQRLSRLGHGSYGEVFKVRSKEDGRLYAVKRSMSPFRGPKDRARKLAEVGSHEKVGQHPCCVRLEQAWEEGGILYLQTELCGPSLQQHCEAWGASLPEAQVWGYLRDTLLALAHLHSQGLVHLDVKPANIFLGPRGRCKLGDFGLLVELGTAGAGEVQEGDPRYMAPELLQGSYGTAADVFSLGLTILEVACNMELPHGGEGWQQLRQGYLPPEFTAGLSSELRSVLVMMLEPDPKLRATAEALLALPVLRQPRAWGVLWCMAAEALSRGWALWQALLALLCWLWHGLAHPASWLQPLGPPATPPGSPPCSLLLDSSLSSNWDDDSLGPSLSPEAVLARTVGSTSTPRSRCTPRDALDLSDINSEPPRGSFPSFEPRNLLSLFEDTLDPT
| target or system | assay | test system | setting | degradation |
| --- | --- | --- | --- | --- |
| PKMYT1 | degrader, automated immunoblot (Jess) | HCC1569 | 1.37 nM, 24 h | 65.7% |
| PKMYT1 | degrader, automated immunoblot (Jess) | HCC1569 | 100 nM, 8 h | 92.9% |
| PKMYT1 | degrader, automated immunoblot (Jess) | HCC1569 | 100 nM, 2 h | ~60% and 65% and ~65% |
| PKMYT1 | degrader, automated immunoblot (Jess) | HCC1569 | 12.35 nM, 24 h | 88% |
|  | automated immunoblotting, item: PKMYT1 | mouse, HCC1569 xenograft, tumour | dose not given, 144 h | 72.1% and 60.2% and 64.7% and 68.9% and 75.3% and 70.4% |
| PKMYT1 | degrader, automated immunoblot (Jess) | HCC1569 | 1000 nM, 24 h | 77.5% |
| PKMYT1 | degrader, automated immunoblot (Jess) | HCC1569 | 100 nM, 24 h | 93.8% |
| PKMYT1 | degrader, automated immunoblot (Jess) | HCC1569 | 0.46 nM, 24 h | 40.2% |
| PKMYT1 | degrader, automated immunoblot (Jess) |  | 111.11 nM, 24 h | 86.2% and 90.1% |

Study 2 — effect on: thermal unfolding; technique: differential scanning fluorimetry; tested at: 5.5 µM; reading: higher = more unfolded
SMILES: C[C@@H]1CN(c2ccc(-c3cc(C(=O)NCCOCCOCCOCCOCCNC(=O)/C=C/c4[nH]cc(C(=O)N[C@@H](CC(N)=O)c5ccc(F)c(Cl)c5)c4-c4ccc(Cl)cc4F)ccc3F)cc2NC(=O)c2c[nH]c(=O)cc2C(F)(F)F)C[C@H](C)N1C
DCAF1: DDB1- and CUL4-associated factor 1 (DCAF1, Homo sapiens, UniProt Q9Y4B6)
Sequence of UniProt Q9Y4B6 (whole entry, looked up): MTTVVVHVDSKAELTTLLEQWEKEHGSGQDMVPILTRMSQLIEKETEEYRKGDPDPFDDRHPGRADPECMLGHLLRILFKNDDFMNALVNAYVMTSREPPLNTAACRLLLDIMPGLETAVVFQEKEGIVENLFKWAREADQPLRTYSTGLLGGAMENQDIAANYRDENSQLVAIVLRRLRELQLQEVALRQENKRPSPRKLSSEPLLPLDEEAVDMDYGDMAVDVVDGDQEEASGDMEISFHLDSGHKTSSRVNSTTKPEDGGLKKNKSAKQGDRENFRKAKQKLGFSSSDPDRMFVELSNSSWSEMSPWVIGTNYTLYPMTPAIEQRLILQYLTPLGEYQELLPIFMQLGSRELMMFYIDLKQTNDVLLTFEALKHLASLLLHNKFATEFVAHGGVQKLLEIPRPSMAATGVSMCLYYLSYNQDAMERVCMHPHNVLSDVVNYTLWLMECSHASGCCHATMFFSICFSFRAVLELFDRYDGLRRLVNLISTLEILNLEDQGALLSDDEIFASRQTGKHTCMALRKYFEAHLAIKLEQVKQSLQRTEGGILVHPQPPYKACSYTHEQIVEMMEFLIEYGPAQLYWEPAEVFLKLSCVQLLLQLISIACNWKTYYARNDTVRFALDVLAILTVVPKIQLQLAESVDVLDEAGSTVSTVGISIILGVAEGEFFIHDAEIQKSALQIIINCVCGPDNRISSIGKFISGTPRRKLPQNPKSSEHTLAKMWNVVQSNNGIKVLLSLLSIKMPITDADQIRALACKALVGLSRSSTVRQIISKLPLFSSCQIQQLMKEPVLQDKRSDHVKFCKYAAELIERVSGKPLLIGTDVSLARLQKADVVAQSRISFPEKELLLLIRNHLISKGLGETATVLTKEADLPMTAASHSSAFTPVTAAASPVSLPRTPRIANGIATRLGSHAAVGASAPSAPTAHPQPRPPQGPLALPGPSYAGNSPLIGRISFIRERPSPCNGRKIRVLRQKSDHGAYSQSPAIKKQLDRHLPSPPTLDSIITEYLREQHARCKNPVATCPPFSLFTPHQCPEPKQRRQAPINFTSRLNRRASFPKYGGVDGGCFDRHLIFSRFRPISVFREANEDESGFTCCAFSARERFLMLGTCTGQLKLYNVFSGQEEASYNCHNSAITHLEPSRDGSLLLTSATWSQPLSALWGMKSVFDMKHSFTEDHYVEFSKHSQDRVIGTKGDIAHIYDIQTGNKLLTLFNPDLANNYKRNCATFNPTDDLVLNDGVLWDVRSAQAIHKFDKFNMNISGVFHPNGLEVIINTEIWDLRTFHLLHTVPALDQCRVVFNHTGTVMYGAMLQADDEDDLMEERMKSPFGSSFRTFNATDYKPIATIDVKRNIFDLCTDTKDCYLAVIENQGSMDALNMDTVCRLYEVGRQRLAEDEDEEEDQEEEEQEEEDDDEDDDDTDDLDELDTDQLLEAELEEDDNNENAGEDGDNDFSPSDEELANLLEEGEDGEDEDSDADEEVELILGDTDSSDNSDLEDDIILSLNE
WDR5: WD repeat-containing protein 5 (WDR5, Homo sapiens, UniProt P61964)
| target | temperature | SYPRO Orange fluorescence [a.u.] |
| --- | --- | --- |
| DCAF1 | 43.2 °C | 12500 |
| WDR5 | 66.61 °C | 14000 |
| WDR5 | 73.81 °C | 23000 |
| DCAF1 | 44.8 °C | 12900 |
| DCAF1 | 31.4 °C | 9680 |
| WDR5 | 77.01 °C | 31200 |
| DCAF1 | 72.61 °C | 52600 |
| WDR5 | 79.61 °C | 39300 |

Study 3 — tested at: 1 µM
Structure (SMILES): CCC1(c2cccc(-c3cn(C)nc3C)c2)C2=C(Nc3n[nH]cc31)C(F)C(C)(C)CC2=O (single isomer, unassigned)
| target | effect on | technique | relative to | remaining binding [%] |
| --- | --- | --- | --- | --- |
| NEK11 (Homo sapiens, UniProt Q8NG66) | binding | competition with immobilised ligand |  | 92 |
| FGFR4 (Homo sapiens, UniProt P22455) | binding | competition with immobilised ligand |  | 99 |
| FER (Homo sapiens, UniProt P16591) | kinase binding | KINOMEscan | DMSO control | 100 |
| TNK2 (Homo sapiens, UniProt Q07912) | kinase binding | KINOMEscan | DMSO control | 99 |
| TESK1 (Homo sapiens, UniProt Q15569) | binding | competition with immobilised ligand |  | 100 |
| CRK2 (Plasmodium falciparum, UniProt P61075) | binding | competition with immobilised ligand |  | 100 |
| MST1R (Homo sapiens, UniProt Q04912) | binding | competition with immobilised ligand |  | 68 |
| COQ8B (Homo sapiens, UniProt Q96D53) | binding | competition with immobilised ligand |  | 100 |
| Ribosomal protein S6 kinase alpha-2, N-terminal kinase domain (RPS6KA2, Homo sapiens, UniProt Q15349) | binding | competition with immobilised ligand |  | 100 |
| STK11 (Homo sapiens, UniProt Q15831) | binding | competition with immobilised ligand |  | 93 |
| TAOK2 (Homo sapiens, UniProt Q9UL54) | binding | competition with immobilised ligand |  | 93 |
| KIT (Homo sapiens, UniProt P10721, D816V) | kinase binding | KINOMEscan | DMSO control | 100 |
| Tyrosine-protein kinase ABL1, non-phosphorylated (ABL1, Homo sapiens, UniProt P00519, F317L) | kinase binding | KINOMEscan | DMSO control | 100 |
| STK10 (Homo sapiens, UniProt O94804) | kinase binding | KINOMEscan | DMSO control | 99 |

Study 4
SMILES: COCCCCCCC1CC2C(CCC3(C)C(O)CCC23)c2ccc(O)cc21 (centres unmarked)
| cell line | technique | item | tested at | relative to | mRNA level ratio |
| --- | --- | --- | --- | --- | --- |
| PANC-1 | DNA microarray | CCL11 | 10 µM | untreated cells | 1 |
| PANC-1 | microarray | ISG20L1 | 50 µM | untreated | 1.82 |
| SK-OV-3 | DNA microarray | CCL11 | 50 µM | untreated cells | 1 |
| SK-OV-3 | microarray | ADAMTS14 | 50 µM | untreated | 1.07 |
| PANC-1 | microarray | GADD45A | 10 µM | untreated | 1.11 |
| A549 | microarray | GADD45A | 10 µM | untreated | 1.94 |
| A549 | microarray | CCL8 | 50 µM | untreated | 24.3 |
| PANC-1 | microarray | ADAMTS8 | 10 µM | untreated | 0.506 |
| A549 | microarray | GADD45A | 50 µM | untreated | 19.5 |
| PANC-1 | microarray | ADAMTS14 | 50 µM | untreated | 0.827 |

Excerpt of the above (study 4):
| cell line | technique | item | tested at | relative to | mRNA level ratio |
| --- | --- | --- | --- | --- | --- |
| A549 | microarray | CCL8 | 50 µM | untreated | 24.3 |
| PANC-1 | microarray | ADAMTS8 | 10 µM | untreated | 0.506 |
